{"data": "Assay results of several laboratories", "note": "Parts stem from different laboratories: compare values within a part only.", "UniProt P52564, sequence (whole entry, looked up)": "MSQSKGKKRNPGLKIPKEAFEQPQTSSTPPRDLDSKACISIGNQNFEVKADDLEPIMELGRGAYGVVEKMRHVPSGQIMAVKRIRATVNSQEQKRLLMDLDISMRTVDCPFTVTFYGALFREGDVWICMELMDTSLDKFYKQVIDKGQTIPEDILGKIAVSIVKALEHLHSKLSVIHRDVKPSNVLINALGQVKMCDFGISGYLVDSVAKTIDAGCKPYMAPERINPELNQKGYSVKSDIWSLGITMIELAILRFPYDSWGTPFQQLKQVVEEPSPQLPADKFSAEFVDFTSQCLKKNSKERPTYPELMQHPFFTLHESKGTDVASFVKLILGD", "UniProt Q9Y243, sequence (whole entry, looked up)": "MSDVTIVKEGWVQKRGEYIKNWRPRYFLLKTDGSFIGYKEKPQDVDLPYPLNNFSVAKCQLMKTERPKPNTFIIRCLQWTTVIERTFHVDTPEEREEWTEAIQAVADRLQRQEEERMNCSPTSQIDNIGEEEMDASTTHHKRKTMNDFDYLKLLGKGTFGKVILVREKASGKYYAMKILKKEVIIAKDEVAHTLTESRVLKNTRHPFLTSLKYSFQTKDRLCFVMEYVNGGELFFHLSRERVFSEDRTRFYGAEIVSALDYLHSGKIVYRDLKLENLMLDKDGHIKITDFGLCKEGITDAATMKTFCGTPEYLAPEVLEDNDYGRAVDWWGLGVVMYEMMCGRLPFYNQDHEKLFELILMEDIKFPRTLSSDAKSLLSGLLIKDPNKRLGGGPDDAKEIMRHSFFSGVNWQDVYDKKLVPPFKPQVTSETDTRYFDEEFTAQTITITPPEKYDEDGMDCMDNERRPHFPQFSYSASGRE", "UniProt O14757, sequence (whole entry, looked up)": "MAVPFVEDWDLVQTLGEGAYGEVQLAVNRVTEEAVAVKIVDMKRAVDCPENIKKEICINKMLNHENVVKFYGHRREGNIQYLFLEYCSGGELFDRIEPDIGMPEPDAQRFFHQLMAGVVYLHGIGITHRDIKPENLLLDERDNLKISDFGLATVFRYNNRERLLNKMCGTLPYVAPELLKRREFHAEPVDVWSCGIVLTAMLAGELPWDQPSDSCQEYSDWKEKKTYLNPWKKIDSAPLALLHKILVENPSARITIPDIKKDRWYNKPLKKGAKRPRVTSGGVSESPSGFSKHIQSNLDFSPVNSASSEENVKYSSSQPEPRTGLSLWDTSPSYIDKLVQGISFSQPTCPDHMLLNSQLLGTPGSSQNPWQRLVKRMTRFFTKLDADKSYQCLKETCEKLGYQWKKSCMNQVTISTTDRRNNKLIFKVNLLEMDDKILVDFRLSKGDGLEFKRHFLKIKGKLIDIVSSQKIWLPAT", "UniProt P53778, sequence (whole entry, looked up)": "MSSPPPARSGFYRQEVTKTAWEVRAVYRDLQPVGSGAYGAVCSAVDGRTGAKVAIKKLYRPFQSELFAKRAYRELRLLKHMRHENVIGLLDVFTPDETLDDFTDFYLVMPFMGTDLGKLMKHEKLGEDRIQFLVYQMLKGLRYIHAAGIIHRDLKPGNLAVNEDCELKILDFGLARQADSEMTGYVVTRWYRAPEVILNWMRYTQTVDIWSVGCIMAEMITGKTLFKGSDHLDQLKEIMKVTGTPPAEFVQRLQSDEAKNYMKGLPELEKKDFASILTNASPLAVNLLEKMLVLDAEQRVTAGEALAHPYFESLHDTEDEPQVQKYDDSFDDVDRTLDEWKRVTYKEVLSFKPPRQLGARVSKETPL", "UniProt Q9HC98, sequence (whole entry, looked up)": "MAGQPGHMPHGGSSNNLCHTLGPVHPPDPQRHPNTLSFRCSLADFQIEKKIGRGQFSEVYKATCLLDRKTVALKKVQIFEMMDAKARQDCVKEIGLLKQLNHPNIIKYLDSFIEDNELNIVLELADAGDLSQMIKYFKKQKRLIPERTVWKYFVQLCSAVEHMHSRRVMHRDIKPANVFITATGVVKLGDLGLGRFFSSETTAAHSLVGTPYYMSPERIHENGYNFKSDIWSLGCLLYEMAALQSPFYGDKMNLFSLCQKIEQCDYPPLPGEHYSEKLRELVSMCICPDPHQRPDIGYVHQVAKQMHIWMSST", "UniProt Q9Y3S1, sequence (whole entry, looked up)": "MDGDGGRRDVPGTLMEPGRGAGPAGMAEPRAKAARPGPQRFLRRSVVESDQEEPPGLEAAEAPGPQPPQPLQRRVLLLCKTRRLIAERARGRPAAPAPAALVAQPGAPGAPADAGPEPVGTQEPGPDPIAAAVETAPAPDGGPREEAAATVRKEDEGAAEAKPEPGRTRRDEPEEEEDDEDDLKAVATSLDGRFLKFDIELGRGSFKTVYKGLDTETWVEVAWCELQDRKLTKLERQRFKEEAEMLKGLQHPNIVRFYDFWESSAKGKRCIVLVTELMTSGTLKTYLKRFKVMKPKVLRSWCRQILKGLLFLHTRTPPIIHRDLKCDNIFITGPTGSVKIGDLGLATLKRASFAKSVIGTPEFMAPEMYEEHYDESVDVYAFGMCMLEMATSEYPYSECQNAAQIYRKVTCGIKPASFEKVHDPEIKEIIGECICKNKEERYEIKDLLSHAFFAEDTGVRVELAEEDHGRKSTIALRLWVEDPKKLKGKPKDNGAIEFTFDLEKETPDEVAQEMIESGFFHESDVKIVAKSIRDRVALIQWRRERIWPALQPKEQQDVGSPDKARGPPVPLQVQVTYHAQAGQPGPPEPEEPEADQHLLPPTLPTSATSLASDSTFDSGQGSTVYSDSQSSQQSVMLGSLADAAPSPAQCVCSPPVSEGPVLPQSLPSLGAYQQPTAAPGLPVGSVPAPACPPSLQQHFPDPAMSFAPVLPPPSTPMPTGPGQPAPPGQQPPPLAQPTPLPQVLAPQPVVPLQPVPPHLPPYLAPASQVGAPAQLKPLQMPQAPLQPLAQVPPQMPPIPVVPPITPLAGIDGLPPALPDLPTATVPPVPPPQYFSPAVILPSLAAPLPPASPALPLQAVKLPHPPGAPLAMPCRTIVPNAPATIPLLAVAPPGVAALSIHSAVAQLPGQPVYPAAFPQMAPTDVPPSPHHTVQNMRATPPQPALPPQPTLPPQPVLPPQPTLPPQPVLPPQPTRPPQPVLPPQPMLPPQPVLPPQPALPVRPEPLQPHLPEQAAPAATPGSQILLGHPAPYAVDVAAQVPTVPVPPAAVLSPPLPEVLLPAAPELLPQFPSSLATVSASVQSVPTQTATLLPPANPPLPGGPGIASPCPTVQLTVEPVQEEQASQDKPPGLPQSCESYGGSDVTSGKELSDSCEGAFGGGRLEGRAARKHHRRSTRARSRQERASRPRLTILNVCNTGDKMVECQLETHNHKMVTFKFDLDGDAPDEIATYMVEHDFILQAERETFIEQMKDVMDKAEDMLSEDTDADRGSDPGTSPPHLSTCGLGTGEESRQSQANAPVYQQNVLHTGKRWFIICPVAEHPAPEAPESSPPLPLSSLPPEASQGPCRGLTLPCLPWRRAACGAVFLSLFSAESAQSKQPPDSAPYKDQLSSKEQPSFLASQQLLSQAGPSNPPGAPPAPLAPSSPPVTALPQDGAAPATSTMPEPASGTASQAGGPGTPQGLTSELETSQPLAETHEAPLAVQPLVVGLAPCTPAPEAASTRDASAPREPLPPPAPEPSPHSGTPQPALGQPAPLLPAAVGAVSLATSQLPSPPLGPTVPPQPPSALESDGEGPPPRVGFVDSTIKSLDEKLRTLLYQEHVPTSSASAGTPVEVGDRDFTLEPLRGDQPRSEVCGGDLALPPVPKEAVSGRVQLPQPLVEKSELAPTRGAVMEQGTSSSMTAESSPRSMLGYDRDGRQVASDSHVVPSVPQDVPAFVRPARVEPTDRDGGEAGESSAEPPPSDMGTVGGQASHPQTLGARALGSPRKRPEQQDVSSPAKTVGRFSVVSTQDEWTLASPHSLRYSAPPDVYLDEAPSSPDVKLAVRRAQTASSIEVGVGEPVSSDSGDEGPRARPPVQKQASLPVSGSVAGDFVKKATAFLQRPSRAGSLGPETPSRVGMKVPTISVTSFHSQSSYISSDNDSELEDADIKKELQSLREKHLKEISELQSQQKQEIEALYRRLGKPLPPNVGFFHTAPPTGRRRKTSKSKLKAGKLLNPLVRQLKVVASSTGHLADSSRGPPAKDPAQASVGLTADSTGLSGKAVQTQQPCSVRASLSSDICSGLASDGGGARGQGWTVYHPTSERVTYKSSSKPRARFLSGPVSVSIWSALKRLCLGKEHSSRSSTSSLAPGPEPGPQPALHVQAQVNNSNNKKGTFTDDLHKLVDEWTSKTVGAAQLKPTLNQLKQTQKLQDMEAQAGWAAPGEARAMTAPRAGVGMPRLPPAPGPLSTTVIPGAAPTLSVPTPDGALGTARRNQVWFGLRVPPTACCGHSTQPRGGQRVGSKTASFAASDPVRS", "UniProt P04049, sequence (whole entry, looked up)": "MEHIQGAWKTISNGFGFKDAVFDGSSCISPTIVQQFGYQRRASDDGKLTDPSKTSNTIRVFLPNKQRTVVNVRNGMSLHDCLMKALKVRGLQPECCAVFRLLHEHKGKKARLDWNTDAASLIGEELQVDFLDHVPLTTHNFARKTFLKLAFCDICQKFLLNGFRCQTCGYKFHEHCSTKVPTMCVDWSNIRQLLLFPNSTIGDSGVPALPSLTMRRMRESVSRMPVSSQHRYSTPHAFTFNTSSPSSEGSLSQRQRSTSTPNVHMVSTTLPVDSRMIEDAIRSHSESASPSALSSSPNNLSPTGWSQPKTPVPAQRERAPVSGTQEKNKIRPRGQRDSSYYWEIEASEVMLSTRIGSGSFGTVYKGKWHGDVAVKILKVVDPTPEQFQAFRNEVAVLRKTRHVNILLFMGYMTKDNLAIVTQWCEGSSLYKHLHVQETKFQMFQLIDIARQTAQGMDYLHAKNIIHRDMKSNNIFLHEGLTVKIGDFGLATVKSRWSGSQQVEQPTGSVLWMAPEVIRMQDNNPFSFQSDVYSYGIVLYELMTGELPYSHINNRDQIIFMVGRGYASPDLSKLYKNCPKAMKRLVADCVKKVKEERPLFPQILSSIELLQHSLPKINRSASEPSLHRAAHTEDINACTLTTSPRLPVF"}
{"data": "Sample 1", "Structure (SMILES)": "COc1ccc2[nH]c3c4[nH]c5ccc(OC)cc5c4c4c(c3c2c1)C(=O)NC4=O", "concentration": "1 µM"}
{"target": "STK33 (Homo sapiens, UniProt Q9BYT3)", "method": "competitive binding panel", "reference": "vehicle", "remaining binding": "33%"}
{"target": "MAP3K13 (Homo sapiens, UniProt O43283)", "method": "competitive binding", "setting": "LZK", "remaining binding": "77%"}
{"target": "HUNK (Homo sapiens, UniProt P57058)", "method": "competitive binding panel", "reference": "vehicle", "remaining binding": "91%"}
{"target": "RAF1 (Homo sapiens, UniProt P04049)", "method": "competitive binding panel", "reference": "vehicle", "remaining binding": "100%"}
{"target": "TAOK1 (Homo sapiens, UniProt Q7L7X3)", "method": "competitive binding panel", "reference": "vehicle", "remaining binding": "100%"}
{"target": "CHUK (Homo sapiens, UniProt O15111)", "method": "competitive binding", "setting": "IKK-alpha", "remaining binding": "89%"}
{"target": "CDK15 (Homo sapiens, UniProt Q96Q40)", "method": "competitive binding", "setting": "PFTAIRE2", "remaining binding": "91%"}
{"target": "MAP2K6 (Homo sapiens, UniProt P52564)", "method": "competitive binding panel", "item": "MEK6", "reference": "vehicle", "remaining binding": "97%"}
{"target": "AAK1 (Homo sapiens, UniProt Q2M2I8)", "method": "competitive binding panel", "reference": "vehicle", "remaining binding": "53%"}
{"target": "STK38 (Homo sapiens, UniProt Q15208)", "method": "competitive binding panel", "item": "NDR1", "reference": "vehicle", "remaining binding": "57%"}
{"target": "CDK8 (Homo sapiens, UniProt P49336)", "method": "competitive binding panel", "reference": "vehicle", "remaining binding": "87%"}
{"target": "CSK (Homo sapiens, UniProt P41240)", "method": "competitive binding panel", "reference": "vehicle", "remaining binding": "95%"}
{"data": "Sample 2", "Structure (SMILES)": "Cc1c(NC(=O)c2cc(C(N)=O)nc3cc(F)ccc23)c(C(F)(F)F)nn1Cc1ccc(C(C)(C)C)cc1", "effect on": "cell-free assay", "method": "competition with immobilised ligand", "concentration": "1 µM"}
{"target": "RIOK3 (Homo sapiens, UniProt O14730)", "remaining binding": "97%"}
{"target": "BLK (Homo sapiens, UniProt P51451)", "remaining binding": "72%"}
{"target": "FLT3 (Homo sapiens, UniProt P36888, D835Y)", "remaining binding": "100%"}
{"target": "IRAK3 (Homo sapiens, UniProt Q9Y616)", "remaining binding": "100%"}
{"target": "EPHA1 (Homo sapiens, UniProt P21709)", "remaining binding": "96%"}
{"target": "STK38L (Homo sapiens, UniProt Q9Y2H1)", "remaining binding": "89%"}
{"target": "MAPKAPK2 (Homo sapiens, UniProt P49137)", "remaining binding": "100%"}
{"target": "NEK6 (Homo sapiens, UniProt Q9HC98)", "remaining binding": "86%"}
{"target": "CAMKK2 (Homo sapiens, UniProt Q96RR4)", "remaining binding": "78%"}
{"target": "TNNI3K (Homo sapiens, UniProt Q59H18)", "remaining binding": "81%"}
{"target": "FLT3 (Homo sapiens, UniProt P36888, D835V)", "remaining binding": "100%"}
{"target": "ERBB4 (Homo sapiens, UniProt Q15303)", "remaining binding": "98%"}
{"target": "LTK (Homo sapiens, UniProt P29376)", "remaining binding": "83%"}
{"target": "EGFR (Homo sapiens, UniProt P00533, L858R/T790M)", "remaining binding": "100%"}
{"target": "CDK14 (Homo sapiens, UniProt O94921)", "remaining binding": "94%"}
{"target": "GAK (Homo sapiens, UniProt O14976)", "remaining binding": "98%"}
{"target": "PKN2 (Homo sapiens, UniProt Q16513)", "remaining binding": "100%"}
{"target": "RIPK4 (Homo sapiens, UniProt P57078)", "remaining binding": "100%"}
{"data": "Sample 3", "cell line": "A-375", "concentration": "100 µM", "time": "18 h"}
{"Compound": "OC[C@H]1O[C@@H](Oc2ccc(O)cc2)[C@H](O)[C@@H](O)[C@@H]1O", "viability": "100%"}
{"Compound": "CN(C)C(=O)COC(=O)Cc1ccc(OC(=O)c2ccc(NC(=N)N)cc2)cc1", "viability": "98.7%"}
{"Compound": "C#C[C@]1(O)CC[C@H]2[C@@H]3CCC4=CC(=O)CC[C@@H]4[C@H]3C(=C)C[C@@]21CC", "viability": "60.3%"}
{"Compound": "CCN1CCN(Cc2ccc(Nc3ncc(F)c(-c4cc(F)c5nc(C)n(C(C)C)c5c4)n3)nc2)CC1", "viability": "105%"}
{"Compound": "COc1ccc2[nH]c([S+]([O-])Cc3ncc(C)c(OC)c3C)nc2c1 (stereo not drawn)", "viability": "84.6%"}
{"Compound": "CCN[C@H]1CN(CCCOC)S(=O)(=O)c2sc(S(N)(=O)=O)cc21", "viability": "91.4%"}
{"Compound": "CCCCCCCCOc1ccccc1C(=O)Nc1ccc(C(=O)OCC[N+](C)(CC)CC)cc1", "viability": "8.21%"}
{"Compound": "C[C@@H]1O[C@@]2(CS1)CN1CCC2CC1", "viability": "98.3%"}
{"Compound": "CC1=C(/C=C/C(C)=C/C=C/C(C)=C\\C(=O)O)C(C)(C)CCC1", "viability": "90.6%"}
{"Compound": "CC(=O)N(CC(O)CO)c1c(I)c(C(=O)NCC(O)CO)c(I)c(C(=O)NCC(O)CO)c1I (mixture of isomers)", "viability": "94.5%"}
{"Compound": "CCOc1nc2cccc(C(=O)OC(C)OC(=O)OC3CCCCC3)c2n1Cc1ccc(-c2ccccc2-c2nnn[nH]2)cc1 (stereo not drawn)", "viability": "10.8%"}
{"Compound": "CCOc1ccc2ccccc2c1C(=O)N[C@@H]1C(=O)N2[C@@H]1SC(C)(C)[C@@H]2C(=O)O", "viability": "89%"}
{"Compound": "O=C(CO)[C@@H](O)[C@H](O)[C@H](O)CO", "viability": "85.4%"}
{"Compound": "COc1ccc(C(=O)NCc2ccc(OCCN(C)C)cc2)cc1OC", "viability": "91.5%"}
{"data": "Sample 4", "Structure (SMILES)": "CCN1/C(=C/C(C)=O)Sc2ccc(OC)cc21", "effect on": "enzyme activity", "mode": "inhibitor", "concentration": "0.5 µM", "reference": "control"}
{"target": "CHEK1 (Homo sapiens, UniProt O14757)", "remaining activity": "87.9%"}
{"target": "AKT3 (Homo sapiens, UniProt Q9Y243)", "remaining activity": "96.1%"}
{"target": "PRKCD (Homo sapiens, UniProt Q05655)", "remaining activity": "88.2%"}
{"target": "WNK2 (Homo sapiens, UniProt Q9Y3S1)", "remaining activity": "91.1%"}
{"target": "PRKCI (Homo sapiens, UniProt P41743)", "remaining activity": "97.8%"}
{"target": "BTK (Homo sapiens, UniProt Q06187)", "remaining activity": "101%"}
{"target": "PRKG1 (Homo sapiens, UniProt Q13976)", "remaining activity": "82.4%"}
{"target": "LYN (Homo sapiens, UniProt P07948)", "remaining activity": "101%"}
{"target": "CSNK1A1 (Homo sapiens, UniProt P48729)", "remaining activity": "53%"}
{"target": "PLK2 (Homo sapiens, UniProt Q9NYY3)", "remaining activity": "100%"}
{"target": "IRAK4 (Homo sapiens, UniProt Q9NWZ3)", "remaining activity": "123%"}
{"target": "Cyclin-dependent kinase 9, with cyclin T1 (CDK9, Homo sapiens, UniProt P50750)", "remaining activity": "101%"}
{"target": "MAP2K6 (Homo sapiens, UniProt P52564)", "remaining activity": "86.7%"}
{"target": "LRRK2 (Homo sapiens, UniProt Q5S007)", "remaining activity": "98.1%"}
{"target": "KIT (Homo sapiens, UniProt P10721)", "remaining activity": "67.8%"}
{"target": "MAPK12 (Homo sapiens, UniProt P53778)", "remaining activity": "99.8%"}
{"target": "MAP4K2 (Homo sapiens, UniProt Q12851)", "remaining activity": "105%"}
{"target": "MAPK13 (Homo sapiens, UniProt O15264)", "remaining activity": "105%"}
{"target": "NEK4 (Homo sapiens, UniProt P51957)", "remaining activity": "92.8%"}
{"target": "CSNK2A1 (Homo sapiens, UniProt P68400)", "remaining activity": "98.1%"}
{"target": "MKNK2 (Homo sapiens, UniProt Q9HBH9)", "remaining activity": "93.8%"}
{"target": "EPHA5 (Homo sapiens, UniProt P54756)", "remaining activity": "97.8%"}
{"note": "Excerpt of the above (sample 2):"}
{"target": "RIPK4 (Homo sapiens, UniProt P57078)", "remaining binding": "100%"}
{"target": "LTK (Homo sapiens, UniProt P29376)", "remaining binding": "83%"}
{"target": "EPHA1 (Homo sapiens, UniProt P21709)", "remaining binding": "96%"}
{"target": "TNNI3K (Homo sapiens, UniProt Q59H18)", "remaining binding": "81%"}
{"target": "RIOK3 (Homo sapiens, UniProt O14730)", "remaining binding": "97%"}
{"target": "BLK (Homo sapiens, UniProt P51451)", "remaining binding": "72%"}
{"target": "NEK6 (Homo sapiens, UniProt Q9HC98)", "remaining binding": "86%"}
